Published values gathered from unrelated publications.
A part holds a random share of what one study measured.

Set 1
Target: RNA binding protein fox-1 homolog 2, RRM domain, GST-SBP tag (RBFOX2, Homo sapiens, UniProt O43251-10, residues 100-194)
Method: RNA Bind-n-Seq
Form: RNA
Medium: in vitro
Tested at: 365 nM
Notes: natural RNA segment, single round, ends assumed
Baseline: no-protein control
Reading: higher = stronger binding
All sequences stand within: GGGAGUUCUACAGUCCGACGAUC … UGGAAUUCUCGGGUGCCAA
Residues (chain): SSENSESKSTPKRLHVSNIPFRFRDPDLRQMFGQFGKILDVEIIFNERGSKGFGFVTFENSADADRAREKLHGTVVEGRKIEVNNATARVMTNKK
Sequence	RBNS enrichment (R)
GAUCCCCAGUUUUGUCCCUCCACUUGGGCACACGAGGUCUCAGGGGUCCUCAACCUGGGUCUGUGCCCCCAGCUGUGCCCAGCACCACGGGACCUCCACAGUCCAAUGGC	0.441
AAAGCUUAGUAAUGGAACUUGGCUGUGGCCCAGAGCUUUCUCCUUAUAGAGAAUUUGAUCUGCUCCGUGUGCGCUCUCUGCUAUUAGCCGGAGCUAUUUAUGGCAAACAC	0.368
CCUUGCUGGCCUCAAGCUUGCAAUGCUCCUGCCUCAGCCUCUCAACUUCUAGAAUUACAUGGCUGCACCACUUCACCCAGCCUAUGUAGUUUUAUUUUAUAAAUGACACU	0.374
UUCCUGUGGCCAUGCUGACUUACACUAAGAUUCUACCCCAGAAAACAAUUCUUUAGCAGUGGACAGAACCCUUAAAUUCUAAAAAGCUACAAACAUCAAGCAAUUCAGGU	0.455
GCCUGUUCUGCUCUUAUUUAACAUGAAGCACUGUGUACUUGUUUCUUCUCUCCAAAGUAAAAUUAGAUUAUUUAUAACUUCGAUCGCCUCGGCUAGGUUUCCAAGUCACU	0.961
AGCAACUGUCCCUAAGAUGCUUUCAAGUGUAUGAGACAUGAGGAGGCUGGGCCACUCUGGUUAUGCACAGUCAGGCAAACUGUCCUUGUAGACGAGUCCCCGACUCUGGG	0.372
CUUGCUGGUGUCCUGGGCAGCACCAUGAAUGCCUUUACCAAGACAUGCCAAGUUGGAUCCCCCGAAUGAAGCAGAUGUGGCUGUGGUGUGACCCUUGCUCCCUGCUACAC	0.364
CAGCCCUUCACAGGCCUGAACCAGUAGGGGCCAGUGGGCCAGGUAAGCCCUAGAGCCUUGAACCAGGAAUAUCCAGGAAGAGGAAAUUCCCUUUGAGCCCCCAGAUGGUA	0.436
CCUCCCCAGGCACCACUACCACCUGACAAAAAUGAAAAGUCUUAAGAAAAUCCUCCCAGGAGAACAUGGAGUCUUAGAGAUCUGGAAGAGAUCGGAGUUUGACUAGGUUU	0.752
CUUCCACAGUUGGAAAGUGGAACUACUUGUUGUUGAUAUCCCACAGCUAUCAGGUGCUAUGUAACUCCCUAGUGCUCUUACAUAGUUUUAUUUGCAGGACUAGAAUAAAA	1.08
UUAUCCCUCCUGGGUCAUGGGAAAAGUCAGUCUCCACAUUACAGAUCACUUCCAGAGGGAGGCUGGAGGGAUGGUCAUACAGCGGGGCCAAGGUAGGGGUGGUCUCAGAC	0.97
AGCCAUUGUGGUGCCGCCCCAGCUUCUGGAUACAGCCUUUUGGGUAAACACUGGGAACUCCAGAAGUUGUGGGGAGAGUGGGGAAUCAGACAGCCGCCUCUAGGGGCUGG	0.254

Set 2
Target: Interferon regulatory factor 3, full length, phosphomimetic (IRF3, Homo sapiens, UniProt Q14653, residues 1-427, S386D/S396D/S398D/S402D/T404D/S405D)
Sequence of UniProt Q14653 (whole entry, unmodified, looked up): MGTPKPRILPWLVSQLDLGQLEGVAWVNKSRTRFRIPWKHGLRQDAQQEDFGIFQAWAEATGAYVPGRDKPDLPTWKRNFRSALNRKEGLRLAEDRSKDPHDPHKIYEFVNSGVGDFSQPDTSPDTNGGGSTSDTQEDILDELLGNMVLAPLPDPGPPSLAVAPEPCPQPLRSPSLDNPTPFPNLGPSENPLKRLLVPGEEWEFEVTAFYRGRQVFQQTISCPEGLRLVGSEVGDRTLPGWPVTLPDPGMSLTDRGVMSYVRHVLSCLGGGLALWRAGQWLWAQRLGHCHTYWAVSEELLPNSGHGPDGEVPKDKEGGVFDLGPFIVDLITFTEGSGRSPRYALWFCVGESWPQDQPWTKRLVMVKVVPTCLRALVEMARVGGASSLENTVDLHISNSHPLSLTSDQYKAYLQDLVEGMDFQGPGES
Method: protein-binding microarray
Form: double-stranded DNA, one strand shown
Medium: in vitro
Tested at: 2540 nM top
Notes: 60-bp whole probe
Together with: salmon DNA 0.4 mg/ml
Baseline: random background probes
Reading: higher = stronger binding
All sequences stand within: GCCTAGCAC … GTCTTGATTCGCTTGACGCTGCTG
Sequence	fitted relative affinity [z-score]
GAAGATCTCAGTATCGAGACGTGCTAG	0.498
GACTGTATCGGTATCGGGACGTGCTAG	4.48
TCAGCTTTGACTCTTTCACTGTGCTAG	-0.0762
TCAGGTATCGGGTTTCGGTTAGTGCTA	4.17
GACGGCATCCTTCTCCTGACGTGCTAG	0.852
CACAACCAAACAAGAAGATGGTGCTAG	0.686
GTCGATCTCAGTCTCGAGACGTGCTAG	1.6
TCATAGATGCCTTTCTCACTGTGCTAG	3.06
TTAGGTATCGACTGTCGGTTAGTGCTA	0.0688
TTAGGTTTCGGGTTTCGGTTAGTGCTA	6.29
TTAGGACTGGACTATCGCTTAGTGCTA	-0.493
TTAGGTATCGGTATTGGTTAGTGCTAG	3.67
TTAGGTTTCGGTATCTGTTAGTGCTAG	8.08
TTATATATCAGTTTCGATTAGTGCTAG	4.67
GACGGTATCGCCTTTCGGGACGTGCTA	1.62
TCAAATTTGCTTTAGTCACTGTGCTAG	0.0509
TTAGGTATCGGTTTGGGTTAGTGCTAG	4.52
TTAGCTCTCGGTATCGGTTAGTGCTAG	1.68
GACGGACTGCTTTTCTTGACGTGCTAG	0.0338

Set 3
Target: RING finger protein unkempt homolog, zinc fingers 1-6, GST-SBP tag (UNK, Homo sapiens, UniProt Q9C0B0, residues 30-357)
Method: RNA Bind-n-Seq
Form: RNA
Medium: in vitro
Tested at: not given
Notes: RNA with constant flanks, human and mouse sites, ends assumed
Baseline: input RNA pool
Reading: higher = stronger binding
All sequences stand within: GGGAGUUCUACAGUCCGACGAUC … CAACAGAGGAUUGAGCAUCA
Target sequence (chain): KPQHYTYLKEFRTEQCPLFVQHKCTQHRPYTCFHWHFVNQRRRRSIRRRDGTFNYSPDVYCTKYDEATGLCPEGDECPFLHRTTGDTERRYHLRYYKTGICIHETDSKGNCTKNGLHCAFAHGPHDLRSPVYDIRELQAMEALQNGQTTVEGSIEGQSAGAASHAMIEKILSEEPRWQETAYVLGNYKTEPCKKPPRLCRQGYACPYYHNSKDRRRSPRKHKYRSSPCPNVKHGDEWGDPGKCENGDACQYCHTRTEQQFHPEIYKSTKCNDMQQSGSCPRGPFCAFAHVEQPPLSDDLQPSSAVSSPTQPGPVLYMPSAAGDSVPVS
Sequence	bound/input enrichment [ratio]
GAAGGCUGAUGUGUGCUGGGGAUACUCUGGAAGACAGUGGAAACUAACUUCCUGUUCAAACUGUGAAAAUGUGUAUACCAGAGGACUAACUUAUUUUUGUAAACUACUACUGCUACAUAC	0.0923
CUGGUGUGCCAGGAAAGUACUAAAUUUAAGAAUGUCUGGACAACUCAUUCCAGGUCACCUAUAGCCUAUGAGAGAGGAAGAAUAUAUUUUGACAAUUAUCGGCGCUGUGUCAGCAGUGUU	1.49
CUAAUCCCCUUCGUUGCUCCACCACUGGUCAUGCUGAUGACAAAAACUUAUAUUCCCAUAUUAGCUUUUACUCAGAUGGCUUAUGGAGCCAGUUUCCUAUCUUUCUUGGGUGGGAUCAGA	0.382
GUUUAGAAGUGCAGUAGAGAGAAAGCAAUUGGCCCUCAUUCUCUGGACAGACUUUUGAUGGAAAGAAUUUCUCUGAUAGGUGUUUGACUGGUUAUCUAAACGUUGCUGUUAAGUAGUCUU	0.834
AUUAUCACAGAAGAACCUGAAAUUGGCAAUAUAGAAAAACCUGUAGAAAUUUUUCAUAUAAUUGAGCAUUUUUGUCUUGGUAGAAGACGCCUUCAUCUAUUUGGAAGAGAUAGUACAAUU	2.74
GAGAACUUAGAGGAUGCUUCUCAAUGCAAGAAGUUAAGAAGCUCUUUCGAAUCAAGUUGUCCCCAACAGUGGAUAAAAUAUUUUGAUAAAAGAAGAGACUACUUAAAAUUCAAAGAAAAA	0.217
GAUUACAAACCAUAAAAUGUAUAACGUUUUGAGCAGUAUUCUGUUGGGAUGGAGAUUUUAUAGGUUCAGACAAAUCUUCUAGAUCUGCUUCACCCAGCAUAUUUUCUAUUCAGUGAUAUA	0.23
UUGAAGGUGUUAUAUCAGUACAAGGAGAAGCAAUAUAUGGCUCCUCGAGUUUUACAACAGACAUUAAAUUAUAUUAAUCAAGGAGUUUCUCAUGCUCUCACCUGGAAGAAUCUGAAGCCC	0.413
CAUGACAAAGCUUCAAAGGAUGCCAAAUAUGAACUAGUGAAAGCACUUGCCAAUUCCAAGACAAUUGCAGAAAUCUUUGGGAACCCAAAUUAUUUGAGGCUCAGAACUUACCUGAGUGAA	0.238
AAGGGUAAUUAUUCGGAGCGGGUCGGCGCUGGUGCCCCGGUGUACCUGGCGGCUGUGCUAGAAUAUCUGACUGCUGAGAUCCUGGAAUUGGCUGGUAAUGCGGCCCGCGACAAUAAGAAG	0.162
ACUGGAAAAACCCUGGUUGCUAGAGCACUUGCCAAUGAGUGCAGCCGAGGGGAUAAGAGAGUGGCGUUCUUCAUGAGGAAAGGUGCUGACUGCCUGAGUAAAUGGGUAGGAGAAUCUGAG	0.103

Set 4
Target: Histone acetyltransferase KAT6A, both winged helices, GST fusion (KAT6A, Homo sapiens, UniProt Q92794, residues 1-181)
Method: protein binding microarray
Form: double-stranded DNA, one strand shown
Medium: in vitro
Tested at: not given
Notes: 8-mer, flanks averaged, mean of 2 arrays, mostly near background
Baseline: not given
Reading: higher = stronger binding
Residues (chain): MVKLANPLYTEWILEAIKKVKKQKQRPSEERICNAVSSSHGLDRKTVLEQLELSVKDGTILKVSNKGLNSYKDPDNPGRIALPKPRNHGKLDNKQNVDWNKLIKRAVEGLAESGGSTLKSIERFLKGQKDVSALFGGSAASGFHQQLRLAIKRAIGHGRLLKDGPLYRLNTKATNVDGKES
Sequence	E-score
GAGCCCCA	-0.236
CTCCGCAA	0.101
GAGAAGGC	-0.173
TACAGGTA	-0.0666
CAGCCATC	-0.0882
TCCGCCAA	0.0545
GGCGTAAC	0.0926
AGCAGAAT	-0.0682
CTAGGAAA	-0.161
ACATTAAC	-0.0774
GCACAAAA	0.027
GGTTTAGA	0.0359
ATGTCGCC	0.0604
GGACGTCA	-0.0751
AGCGTCAA	0.174
CTTATCCC	-0.0308
CTAGCTTA	-0.107
AATTGGGC	-0.228
CGTCAGGC	0.00109
ACGGCCGT	0.357
ACCATAAC	-0.0168
AGAGTACT	-0.0752
CGGTCGAA	0.165
AACACTTC	-0.163

Repeated from above (set 2):
Sequence	fitted relative affinity [z-score]
GACTGTATCGGTATCGGGACGTGCTAG	4.48
GACGGACTGCTTTTCTTGACGTGCTAG	0.0338
TTAGGTATCGGTTTGGGTTAGTGCTAG	4.52
TTAGGTTTCGGTATCTGTTAGTGCTAG	8.08
GACGGCATCCTTCTCCTGACGTGCTAG	0.852
GTCGATCTCAGTCTCGAGACGTGCTAG	1.6
TTAGGTATCGGTATTGGTTAGTGCTAG	3.67
TTAGCTCTCGGTATCGGTTAGTGCTAG	1.68
